Results collected from several papers.
Numbered parts are unrelated; each lists some results of a single study. Changes are numbered by the printed parent chain.
Sequence of UniProt P61075 (whole entry, looked up): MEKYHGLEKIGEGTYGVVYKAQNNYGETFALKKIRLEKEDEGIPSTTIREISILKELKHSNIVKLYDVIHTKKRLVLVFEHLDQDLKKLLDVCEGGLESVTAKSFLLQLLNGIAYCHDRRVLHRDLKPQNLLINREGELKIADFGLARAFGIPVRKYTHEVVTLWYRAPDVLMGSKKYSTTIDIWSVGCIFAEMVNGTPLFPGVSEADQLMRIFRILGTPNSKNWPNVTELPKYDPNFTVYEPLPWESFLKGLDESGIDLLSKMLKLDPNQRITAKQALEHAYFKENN

Study 1 — target: CCNE2, cyclin fold, Cln2 fusion (human); method: yeast growth competition, sequencing; matrix: yeast; setting: strong parent motif; baseline: not given; reading: higher = stronger binding; starting sequence: viral docking peptide; YKVKRRLVFGADD
| Change | normalised enrichment score |
| --- | --- |
| F9Q | 0.771 |
| V8Y | 5.59 |
| R5Q | 0.581 |
| A11D | 6.11 |

Mixed results
CBF1 full length, N-terminal tag: Centromere-binding protein 1, full length, N-terminal tag (CBF1, Saccharomyces cerevisiae, UniProt P17106, residues 1-351)
Sequence of UniProt P17106 (whole entry, looked up): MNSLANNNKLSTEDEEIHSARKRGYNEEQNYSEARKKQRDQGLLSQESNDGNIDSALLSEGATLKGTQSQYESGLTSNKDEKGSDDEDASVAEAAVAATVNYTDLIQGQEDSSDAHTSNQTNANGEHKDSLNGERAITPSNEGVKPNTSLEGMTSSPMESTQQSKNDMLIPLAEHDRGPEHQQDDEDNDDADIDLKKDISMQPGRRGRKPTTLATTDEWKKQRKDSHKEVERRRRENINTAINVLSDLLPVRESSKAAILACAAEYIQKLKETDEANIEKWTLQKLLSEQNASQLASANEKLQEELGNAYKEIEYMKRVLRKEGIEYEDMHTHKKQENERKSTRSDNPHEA
| Substance | tested on | test | test system | setting | how to read | measurement | value |
| --- | --- | --- | --- | --- | --- | --- | --- |
| CTAGCTGACTAAAATAGTGTGACACAACGTACATTCGTCTTGATTCGCTTGACGCTGCTG | CBF1 full length, N-terminal tag | protein-binding microarray | double-stranded DNA, one strand shown, in vitro | 0.8 µM, whole 60-bp probe, no competitor | higher = stronger binding | fluorescence intensity | 589 a.u. |
| C[C@@H](c1cccc(C#N)c1)n1cc(Cl)cc(C(N)=O)c1=N | Cyclin-dependent kinase 2 homolog (CRK2, Plasmodium falciparum, UniProt P61075) | cell-free assay, competition with immobilised ligand | – | 1 µM | – | remaining binding | 100% |
| NCC(CC(=O)O)c1ccc(Cl)cc1 (centres unmarked) | mouse MPNST tumor cells | high-content nuclear imaging, measured: cell number | – | 10 µM, 12 h, mean of 2 replicates | baseline: plate mean, higher = more cells | nuclei count | -0.191 z-score |
| CCTAACTACTATAGTCATGTTGTATAGCTTCGTACAGTCTTGATTCGCTTGACGCTGCTG | CBF1 full length, N-terminal tag | protein-binding microarray | double-stranded DNA, one strand shown, in vitro | 0.8 µM, whole 60-bp probe, no competitor | higher = stronger binding | fluorescence intensity | 549 a.u. |

For quick reference, copied from above (mixed results):
| Substance | tested on | test | test system | setting | how to read | measurement | value |
| --- | --- | --- | --- | --- | --- | --- | --- |
| CCTAACTACTATAGTCATGTTGTATAGCTTCGTACAGTCTTGATTCGCTTGACGCTGCTG | CBF1 full length, N-terminal tag | protein-binding microarray | double-stranded DNA, one strand shown, in vitro | 0.8 µM, whole 60-bp probe, no competitor | higher = stronger binding | fluorescence intensity | 549 a.u. |
